Measured values pooled from the literature.
A part holds a random share of what one study measured. Substitutions count along the parent as printed.

Block 1
Target: ABI1, truncated, D143A, DHFR fusion (Arabidopsis thaliana)
Method: DHFR PCA, deep sequencing
Sample: yeast
Notes: methotrexate growth selection, single substitutions
With: (+)-ABA 58 µM
Reference: wild-type fitted maximum
Reading: higher = stronger binding
Starting sequence: PYL1, truncated, DHFR fusion (Arabidopsis thaliana); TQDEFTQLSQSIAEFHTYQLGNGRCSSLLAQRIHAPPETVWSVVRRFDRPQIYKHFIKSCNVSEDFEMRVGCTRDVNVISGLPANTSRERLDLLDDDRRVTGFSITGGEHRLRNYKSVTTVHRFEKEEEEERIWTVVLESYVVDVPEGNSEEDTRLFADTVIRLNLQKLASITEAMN
| Change | relative binding score [%] |
| --- | --- |
| G81V | 15.3 |
| R88E | 75.5 |
| H34T | 69.8 |
| S27D | 76.5 |
| W134V | 95.6 |
| K126V | 97.2 |
| E67N | 82.4 |
| E89I | -30.5 |
| F157G | -2.2 |
| G81E | 2.22 |
| R49G | 45.8 |
| F15D | 29.3 |
| K54F | -3.04 |
| Y18K | 75.8 |
| I105P | -27.5 |
| R45I | -3.74 |
| S104A | 50.8 |
| P36L | 75.5 |
| I133Y | 79.7 |
| D92T | 63.8 |

Block 2
Target: MAFK, bZIP domain (human)
Method: DHFR protein complementation
Sample: yeast
Notes: single substitutions, most at no-binding floor
Reference: wild-type JUN-FOS pair
Reading: higher = stronger binding
Starting sequence: JUN, bZIP domain (human); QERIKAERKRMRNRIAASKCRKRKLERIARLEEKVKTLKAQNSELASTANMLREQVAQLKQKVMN; partner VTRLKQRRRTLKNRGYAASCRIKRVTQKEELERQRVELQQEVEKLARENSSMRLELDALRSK
| Change | binding fitness |
| --- | --- |
| K39W | -1.51 natural log |
| Q55D | -1.49 natural log |
| E44W | -1.52 natural log |
| S43W | -1.51 natural log |
| K34V | -1.5 natural log |
| A49I | -1.44 natural log |
| V35W | -1.4 natural log |
| A46T | -1.45 natural log |
| N42G | -1.49 natural log |
| R53S | -1.48 natural log |
| A40P | -1.53 natural log |
| I28E | -1.42 natural log |
| V56L | -1.43 natural log |
| L52T | -1.48 natural log |
| A46Y | -1.57 natural log |
| E32M | -1.52 natural log |

Block 3
Target: Histone acetyltransferase KAT6A, both winged helices, GST fusion (KAT6A, Homo sapiens, UniProt Q92794, residues 1-181)
Method: protein binding microarray
Form: double-stranded DNA, one strand shown
Sample: in vitro
Tested at: not given
Notes: 8-mer, flanks averaged, mean of 2 arrays, mostly near background
Reference: not given
Reading: higher = stronger binding
Target sequence (chain): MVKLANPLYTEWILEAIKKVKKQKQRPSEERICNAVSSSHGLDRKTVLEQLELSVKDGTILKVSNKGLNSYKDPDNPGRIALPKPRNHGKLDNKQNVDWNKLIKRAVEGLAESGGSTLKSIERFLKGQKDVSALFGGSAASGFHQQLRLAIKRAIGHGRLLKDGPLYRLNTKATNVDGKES
| Oligonucleotide | E-score |
| --- | --- |
| ATGCTTCA | 0.0059 |
| AGAAAACG | 0.0698 |
| AAGAAAAG | -0.257 |
| GTACTAGA | -0.0226 |
| CGGCCTCA | 0.157 |
| CCAGAATC | -0.0995 |
| GGACAGGA | -0.0726 |
| CCGACCGA | 0.164 |
| GTGCAACA | -0.139 |
| CTGAAAAC | 0.0288 |
| ACGACGTC | 0.0223 |
| AAACATTG | -0.0343 |
| CATGAAAG | -0.151 |
| CGATGGCA | -0.0136 |
| GGCTAGAA | 0.0244 |
| AGGAATTA | -0.148 |
| CTTCTGCA | 0.014 |
| CCCGATAG | 0.0588 |
| GCCGCCAA | 0.215 |
| TAATCCTA | -0.0147 |
| GAACATGA | -0.0512 |
| CATGCGAA | 0.0162 |
| ACCAAAAC | -0.113 |
| ATGGCCGC | 0.238 |
| AAGAGGCT | -0.214 |

Block 4
Target: CCNB2, cyclin fold, Cln2 fusion (human)
Method: yeast growth competition, sequencing
Sample: yeast
Notes: weak parent motif
Reference: not given
Reading: higher = stronger binding
Starting sequence: CDKN1B docking peptide (human); PSACRNLFGPVDH; partner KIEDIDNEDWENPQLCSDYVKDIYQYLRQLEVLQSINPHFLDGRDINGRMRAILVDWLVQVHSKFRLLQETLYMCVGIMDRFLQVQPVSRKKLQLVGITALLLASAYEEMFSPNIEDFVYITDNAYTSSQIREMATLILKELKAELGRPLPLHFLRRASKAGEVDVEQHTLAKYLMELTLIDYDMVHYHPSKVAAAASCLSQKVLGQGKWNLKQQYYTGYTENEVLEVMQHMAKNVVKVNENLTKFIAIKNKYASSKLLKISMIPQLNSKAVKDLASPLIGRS
| Change | normalised enrichment score |
| --- | --- |
| PSACRNEFGPVDH [L7E] | -0.0783 |
| PSCCRNLFGPVDH [A3C] | -0.271 |
| PSACRSLFGPVDH [N6S] | -0.158 |
| PSACRNLFGPVDC [H13C] | -0.146 |
| PSACRNLTGPVDH [F8T] | 0.0297 |
| NSACRNLFGPVDH [P1N] | 0.029 |
| PSACRNLFGPVDT [H13T] | -0.0159 |
| PSGCRNLFGPVDH [A3G] | 0.108 |
| GSACRNLFGPVDH [P1G] | 0.0399 |
| PSACRNLFGPYDH [V11Y] | -0.264 |
| PQACRNLFGPVDH [S2Q] | -0.227 |
| PSAPRNLFGPVDH [C4P] | -0.0249 |
| PAACRNLFGPVDH [S2A] | 0.259 |
| RSACRNLFGPVDH [P1R] | 0.188 |
| DSACRNLFGPVDH [P1D] | -0.627 |
| PSACQNLFGPVDH [R5Q] | -0.553 |
| PSSCRNLFGPVDH [A3S] | -0.0096 |
| PSACRNLFFPVDH [G9F] | 0.326 |
| PSNCRNLFGPVDH [A3N] | 0.206 |
| PFACRNLFGPVDH [S2F] | -0.153 |
| PSACRNLFGPHDH [V11H] | 0.515 |
| PSACRNLFGPVDI [H13I] | -0.241 |
| PSACRNCFGPVDH [L7C] | -0.29 |
| PSACRNLSGPVDH [F8S] | 0.349 |
| PSACRNLFLPVDH [G9L] | 0.196 |

Block 5
Target: Ras GTPase-activating protein-binding protein 1, RRM domain (G3BP1, Homo sapiens, UniProt Q13283)
Chain of UniProt Q13283 (whole entry, looked up): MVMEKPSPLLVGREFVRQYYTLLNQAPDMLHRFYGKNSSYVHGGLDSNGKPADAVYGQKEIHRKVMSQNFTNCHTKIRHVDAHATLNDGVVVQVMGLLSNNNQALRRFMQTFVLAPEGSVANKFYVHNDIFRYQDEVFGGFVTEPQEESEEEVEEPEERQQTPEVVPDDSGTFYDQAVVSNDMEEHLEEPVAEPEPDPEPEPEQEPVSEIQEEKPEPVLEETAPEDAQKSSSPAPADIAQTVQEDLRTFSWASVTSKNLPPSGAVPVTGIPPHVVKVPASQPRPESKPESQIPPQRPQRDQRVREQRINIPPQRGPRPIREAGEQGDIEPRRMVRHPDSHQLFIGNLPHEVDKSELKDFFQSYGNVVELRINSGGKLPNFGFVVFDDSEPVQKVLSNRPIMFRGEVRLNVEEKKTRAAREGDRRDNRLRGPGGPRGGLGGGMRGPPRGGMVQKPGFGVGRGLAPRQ
Method: RNA Bind-n-Seq
Form: RNA
Sample: in vitro
Tested at: 1 µM
Notes: whole 134-nt RNA, ends assumed
With: 150 mM KCl
Reference: input library
Reading: higher = stronger binding
All sequences stand within: GGGAGUUCUACAGUCCGACGAUC … UGGAAUUCUCGGGUGUCAAGG
| Oligonucleotide | log2 enrichment |
| --- | --- |
| CCUCAAGUCCUGUGCUACACAUCGUAUGUACCGAAUCGGGAGGAGGGGAGGGGAAAGUAUUAUGUUACGCCGUUCGGAUCUGCACUUCCA | 0.362 |
| CAAGUCCUGUGCUACACAUCGUAUGUACCGAAUCGGGGCCCGGGCCCGGCCCGGGAAAGUAUUAUGUUACGCCGUUCGGAUCUGCACUUC | -0.832 |
| UUCUGCACCUCUGCUACCUAAAGAAGACCCAAUCUUCACAUAUUUAUCUAAACGGUUAGGAAGGAGUAUAGAUGACAUAGGUCACCUCAU | -0.0597 |
| UCCUGUGCUACACAUCGUAUGUACCGAAUCGGUUUUUUGGGUUUUUUGGGGUUUUUUGGGAAAGUAUUAUGUUACGCCGUUCGGAUCUGC | -0.102 |
| UAACUUUAGAGGAGGAUCCGAUGGAUAUGGCAGUGGACGUGGAUUUGGGGAUGGCUAUAAUGGGUAUGGAGGAGGACCUGGAGGUGGCAA | -0.83 |
| AAGUCCUGUGCUACACAUCGUAUGUACCGAAUCGGGCCCCGGGCCCCGGGCCCCGGGAAAGUAUUAUGUUACGCCGUUCGGAUCUGCACU | -0.994 |
| UGGGAGGUGGAUUUUGUUUAUUUUUUUAGCUCAUUUCCAGGGGUGGGAAUUUUUUUUUAAUAUGUGUCAUGAAAAAAGUUGUUUUUGAAA | 1.32 |
| UCCUGUGCUACACAUCGUAUGUACCGAAUCGGUUUUUUGGGUUUUUUGGGUUUUUUGGGAAAGUAUUAUGUUACGCCGUUCGGAUCUGCA | -0.145 |
| UGGCCCUGGUGGCAUGCGGGGAGGAAGAGGUGGCCUCACGGAUCGUGGUGGUCCCGGUGGAAUGUUCAGAGGUGGCCGUGGUGGAGACAG | 0.946 |
| AGUCCUGUGCUACACAUCGUAUGUACCGAAUCGGGGAAAGGGGUUUGGGGAAAGGGGAAAGUAUUAUGUUACGCCGUUCGGAUCUGCACU | 1.87 |
| CAACUUUAGAGGAGGAUCUGAUGGAUAUGGCAGUGGACGUGGAUUUGGGGAUGGCUAUAAUGGGUAUGGAGGAGGACCUGGAGGUGGCAA | -0.738 |
| CCUCAAGUCCUGUGCUACACAUCGUAUGUACCGAAUCGGUGGUGGUUUUUGGAAAGUAUUAUGUUACGCCGUUCGGAUCUGCACUUCCAG | -0.126 |
| UCCAAACCCAAGAAAAAGAAAUCUUUUUCCAAGGAGGAGUUGAUGAGUAGCGAUCUUGAAGAGACCGCUGGCAGCACCAGUAUUCCCAAG | -0.214 |
| GUCCUGUGCUACACAUCGUAUGUACCGAAUCGGUUUUUUUGGUUUUUUUGGUUUUUGGAAAGUAUUAUGUUACGCCGUUCGGAUCUGCAC | -0.201 |

Block 6
Target: Interferon regulatory factor 5, full length, phosphomimetic (IRF5, Homo sapiens, UniProt Q13568-2, residues 1-514, S451D/S453D/S456D/S462D)
Method: protein-binding microarray
Form: double-stranded DNA, one strand shown
Sample: in vitro
Tested at: 940 nM top
Notes: 60-bp whole probe
With: salmon DNA 0.4 mg/ml
Reference: random background probes
Reading: higher = stronger binding
All sequences stand within: GCCTAGCAC … GTCTTGATTCGCTTGACGCTGCTG
| Oligonucleotide | fitted relative affinity |
| --- | --- |
| CTTTCTGTCAGTTTTGAGCTGTGCTAG | 1.34 z-score |
| TGCATTTTTTTTTTCTACTTGTGCTAG | 1.52 z-score |
| TCATCATTATTGTCTCCCACTGTGCTA | 1.32 z-score |
| TTACGACTGGGTATCGGTTAGTGCTAG | 4.04 z-score |
| ATAGGACTGGGTTTCGGTTAGTGCTAG | 6.68 z-score |
| TTAGGACTGCTGCTCCTTTAGTGCTAG | -0.393 z-score |
| TCAACTCCCTCTCTGGCACTGTGCTAG | 0.316 z-score |
| TTTGATCTCAGTTTCGATTAGTGCTAG | 8.41 z-score |
| GACGGACTGGGTTTCGGGCCGTGCTAG | 2.47 z-score |
| GACGGACTGAGACTGGGGACGTGCTAG | -0.287 z-score |
| TTAGATATCAGTCTCTATTAGTGCTAG | 0.733 z-score |
| TCAGGAAACTTAAACTAGACTGTGCTA | -0.0268 z-score |
| GACGGTCTCATACTGCTGACGTGCTAG | 0.557 z-score |
| TTAGGACTGGGTACCGGTTAGTGCTAG | -0.428 z-score |
| CTCTGGGGAGATCAGCGCATGTGCTAG | -0.505 z-score |
| GACGGTTTCGGTCTCGGGCCGTGCTAG | 12.8 z-score |
| TTAGATTTCCGGTTTCGATTAGTGCTA | 6.68 z-score |
| TCATATTTGTTTCCATTACTGTGCTAG | 1.74 z-score |
| TCATACATGGGTTTTCAGACTGTGCTA | 0.0788 z-score |
| TTAGGTCTGGACTATCGGTTAGTGCTA | -0.208 z-score |
| TTAGGACTGCTTCTCCGTTAGTGCTAG | -0.279 z-score |
| TTACGTATCGGTATCGGTTAGTGCTAG | 9.06 z-score |
| GACGGTATCGGACTGGGGGCGTGCTAG | 4.01 z-score |

Other studies, line by line
| Substance | target | assay | test system | setting | how to read | endpoint | result |
| --- | --- | --- | --- | --- | --- | --- | --- |
| PhoQ, residues 284 288 289 292 302 303 SSTLSG | PhoP, residues 12 14 15 18 19 TPLRH (Escherichia coli, UniProt P23836) | Sort-seq, measured: YFP reporter | E. coli | PhoQ-PhoP variant library, with: 10 µM Mg2+ | reference: high Mg2+ state, higher = stronger signaling | fold induction | 4.82 |

Some of these lines once more (block 3):
| Oligonucleotide | E-score |
| --- | --- |
| AAACATTG | -0.0343 |
| CATGAAAG | -0.151 |
| CGATGGCA | -0.0136 |
| GGCTAGAA | 0.0244 |
| AGGAATTA | -0.148 |
| CTTCTGCA | 0.014 |
| CCCGATAG | 0.0588 |
| GCCGCCAA | 0.215 |
| TAATCCTA | -0.0147 |
| GAACATGA | -0.0512 |
| CATGCGAA | 0.0162 |
| ACCAAAAC | -0.113 |
| ATGGCCGC | 0.238 |
